Experimental data of several laboratories.
Every numbered part comes from another study and shows a few of its results, in no order. Substitutions count along the parent as printed.

Series 1
Molecule: PhoQ, residues 284 288 289 292 302 303 SIHMAM
Method: Sort-seq
Refers to: YFP reporter
Sample: E. coli
Setting: PhoQ-PhoP variant library
With: 10 µM Mg2+
Reference: high Mg2+ state
Reading: higher = stronger signaling
Quantity: fold induction
PhoP, residues 12 14 15 18 19 NYFRM (Escherichia coli, UniProt P23836): 5.14
PhoP, residues 12 14 15 18 19 QYFSL (Escherichia coli, UniProt P23836): 3.87
PhoP, residues 12 14 15 18 19 TQALL (Escherichia coli, UniProt P23836): 8.51

Series 2
Target: Sal-like protein 4, full length isoform A (SALL4, Homo sapiens, UniProt Q9UJQ4, residues 1-1053)
Chain of UniProt Q9UJQ4 (whole entry, looked up): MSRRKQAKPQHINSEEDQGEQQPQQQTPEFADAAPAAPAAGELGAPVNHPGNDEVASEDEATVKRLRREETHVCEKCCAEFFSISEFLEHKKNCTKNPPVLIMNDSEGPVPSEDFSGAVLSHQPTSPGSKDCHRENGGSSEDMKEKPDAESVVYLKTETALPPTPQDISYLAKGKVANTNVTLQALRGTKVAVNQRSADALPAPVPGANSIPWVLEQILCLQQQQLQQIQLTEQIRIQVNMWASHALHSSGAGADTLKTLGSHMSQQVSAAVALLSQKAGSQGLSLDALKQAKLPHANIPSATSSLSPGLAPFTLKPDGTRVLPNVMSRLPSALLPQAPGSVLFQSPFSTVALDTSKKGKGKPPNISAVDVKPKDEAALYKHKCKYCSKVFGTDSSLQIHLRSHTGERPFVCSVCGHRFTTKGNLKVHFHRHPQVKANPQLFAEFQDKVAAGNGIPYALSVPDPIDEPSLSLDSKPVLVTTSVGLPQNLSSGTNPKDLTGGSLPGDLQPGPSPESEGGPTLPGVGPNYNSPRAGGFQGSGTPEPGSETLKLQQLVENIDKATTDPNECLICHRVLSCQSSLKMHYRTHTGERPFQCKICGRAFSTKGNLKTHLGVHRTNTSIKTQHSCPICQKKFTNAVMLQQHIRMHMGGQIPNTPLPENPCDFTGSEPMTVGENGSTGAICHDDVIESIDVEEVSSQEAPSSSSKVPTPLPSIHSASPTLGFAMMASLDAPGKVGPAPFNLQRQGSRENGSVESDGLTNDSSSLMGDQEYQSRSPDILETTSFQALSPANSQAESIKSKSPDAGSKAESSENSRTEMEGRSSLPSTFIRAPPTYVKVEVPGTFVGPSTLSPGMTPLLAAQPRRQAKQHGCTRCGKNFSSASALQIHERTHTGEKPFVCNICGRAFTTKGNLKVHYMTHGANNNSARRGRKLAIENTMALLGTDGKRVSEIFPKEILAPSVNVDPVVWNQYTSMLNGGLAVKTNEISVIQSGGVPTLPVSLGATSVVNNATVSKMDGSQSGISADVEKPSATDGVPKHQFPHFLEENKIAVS
Method: universal PBM
Molecule type: double-stranded DNA, one strand shown
Sample: in vitro
Tested at: 600 nM
Setting: 8-mer, flanks averaged, mean of replicates
Reading: higher = stronger binding
Quantity: E-score
ATCTCGCG: 0.0444
CTAGCAAG: -0.185
TAGATCTA: 0.276
CGGTAGCA: -0.0556
GAGTCGGA: -0.0776
ATAGCGGA: 0.0869
ATTCGCAA: 0.21
CAAGGTCC: -0.172
CGTATAGA: 0.146

Series 3
Target: CCND1, cyclin fold, Cln2 fusion (human)
Method: yeast growth competition, sequencing
Sample: yeast
Setting: weak parent motif
Reference: not given
Reading: higher = stronger binding
Quantity: normalised enrichment score
Parent: RB1 docking peptide (human); PKPLKKLRFDIEG
P3L: 0.37
K2E: 0.518
K5V: -0.0789
P3A: -0.0278
P3W: 1.16
P1A: 0.184
I11D: -0.447
I11K: 0.0367

Series 4
Target: Centromere-binding protein 1, full length, N-terminal tag (CBF1, Saccharomyces cerevisiae, UniProt P17106, residues 1-351)
Chain of UniProt P17106 (whole entry, looked up): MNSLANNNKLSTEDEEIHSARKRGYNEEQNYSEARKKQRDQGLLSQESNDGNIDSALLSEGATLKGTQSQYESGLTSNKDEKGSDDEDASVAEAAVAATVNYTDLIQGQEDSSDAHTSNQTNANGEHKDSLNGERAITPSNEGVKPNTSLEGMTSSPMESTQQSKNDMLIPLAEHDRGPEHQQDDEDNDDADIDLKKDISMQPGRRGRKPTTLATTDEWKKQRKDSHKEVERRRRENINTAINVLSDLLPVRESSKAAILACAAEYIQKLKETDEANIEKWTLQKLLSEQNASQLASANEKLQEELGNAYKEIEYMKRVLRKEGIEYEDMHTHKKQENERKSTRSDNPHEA
Method: protein-binding microarray
Molecule type: double-stranded DNA, one strand shown
Sample: in vitro
Tested at: 0.8 µM
Setting: whole 60-bp probe, no competitor
Reading: higher = stronger binding
Quantity: fluorescence intensity
Shared flanks, not repeated: … GTCTTGATTCGCTTGACGCTGCTG
CTATGCGAACCACTTGGTCAGGTGCGGTACGTATTC: 1920 a.u.
CTAGAATCAGTTTGTCTCCTGAAGGTTTTTTTGTTC: 512 a.u.
CTAAAGGAAGTGATTGGTGTCACGATGATAAAATTC: 1030 a.u.
CTAACGCCATCTCAGCGTGTGACATGATAATTTTTC: 882 a.u.
TGTACGAAGCTATGCCACGTGGGTATAGTAGTTAGG: 5100 a.u.
GAAAGTTAAGTACTGCACGTTTCATATCGGAGGTAG: 616 a.u.
CCTAACTACTATATAATCATGACATAGCTTCGTACA: 580 a.u.
CTAGAGCGCAGTTAGTAGGTGATCGGGAAATTGTTC: 511 a.u.
GAATGTGATTGTCGTCACCTTGCCATCCTCTCTTAG: 536 a.u.

Excerpt of the above (series 4):
CTAACGCCATCTCAGCGTGTGACATGATAATTTTTC: 882 a.u.
TGTACGAAGCTATGCCACGTGGGTATAGTAGTTAGG: 5100 a.u.
GAAAGTTAAGTACTGCACGTTTCATATCGGAGGTAG: 616 a.u.
CCTAACTACTATATAATCATGACATAGCTTCGTACA: 580 a.u.
